Published values collected from several papers.
Compare with care: the assays were run in different laboratories. ± gives the spread as reported.
Sequence of UniProt Q13153 (whole entry, looked up): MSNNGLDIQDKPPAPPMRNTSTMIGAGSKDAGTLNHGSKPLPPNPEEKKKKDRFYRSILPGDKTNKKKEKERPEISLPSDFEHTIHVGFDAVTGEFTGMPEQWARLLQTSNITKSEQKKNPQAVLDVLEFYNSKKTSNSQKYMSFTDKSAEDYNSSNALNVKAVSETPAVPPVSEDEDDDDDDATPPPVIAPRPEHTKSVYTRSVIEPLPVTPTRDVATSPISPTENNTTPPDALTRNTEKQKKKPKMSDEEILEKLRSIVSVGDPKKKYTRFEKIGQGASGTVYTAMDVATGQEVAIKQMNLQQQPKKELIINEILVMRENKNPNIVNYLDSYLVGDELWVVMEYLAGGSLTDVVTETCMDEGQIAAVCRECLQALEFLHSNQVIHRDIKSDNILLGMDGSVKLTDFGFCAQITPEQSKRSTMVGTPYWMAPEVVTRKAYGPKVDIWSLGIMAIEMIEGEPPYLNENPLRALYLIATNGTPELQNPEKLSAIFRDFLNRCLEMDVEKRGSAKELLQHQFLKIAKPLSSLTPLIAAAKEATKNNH
Sequence of UniProt P51813 (whole entry, looked up): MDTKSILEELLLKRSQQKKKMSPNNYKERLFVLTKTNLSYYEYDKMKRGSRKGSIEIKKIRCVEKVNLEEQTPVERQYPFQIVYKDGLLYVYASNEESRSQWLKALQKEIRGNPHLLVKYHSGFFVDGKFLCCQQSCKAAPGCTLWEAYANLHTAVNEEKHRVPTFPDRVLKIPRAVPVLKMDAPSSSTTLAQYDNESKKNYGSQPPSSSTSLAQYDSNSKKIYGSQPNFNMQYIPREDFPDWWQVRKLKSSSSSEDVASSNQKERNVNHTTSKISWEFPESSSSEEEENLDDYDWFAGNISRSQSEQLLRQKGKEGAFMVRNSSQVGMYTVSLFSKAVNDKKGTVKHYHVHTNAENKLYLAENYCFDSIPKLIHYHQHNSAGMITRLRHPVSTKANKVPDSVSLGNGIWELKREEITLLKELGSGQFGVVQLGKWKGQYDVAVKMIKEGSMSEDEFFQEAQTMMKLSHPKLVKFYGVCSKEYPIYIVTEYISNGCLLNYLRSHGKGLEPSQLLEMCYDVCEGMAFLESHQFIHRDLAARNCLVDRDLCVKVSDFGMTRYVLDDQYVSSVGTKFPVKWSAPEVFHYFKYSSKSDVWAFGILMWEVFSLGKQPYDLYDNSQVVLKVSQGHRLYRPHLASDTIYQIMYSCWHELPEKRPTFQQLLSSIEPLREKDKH
Sequence of UniProt P10635 (whole entry, looked up): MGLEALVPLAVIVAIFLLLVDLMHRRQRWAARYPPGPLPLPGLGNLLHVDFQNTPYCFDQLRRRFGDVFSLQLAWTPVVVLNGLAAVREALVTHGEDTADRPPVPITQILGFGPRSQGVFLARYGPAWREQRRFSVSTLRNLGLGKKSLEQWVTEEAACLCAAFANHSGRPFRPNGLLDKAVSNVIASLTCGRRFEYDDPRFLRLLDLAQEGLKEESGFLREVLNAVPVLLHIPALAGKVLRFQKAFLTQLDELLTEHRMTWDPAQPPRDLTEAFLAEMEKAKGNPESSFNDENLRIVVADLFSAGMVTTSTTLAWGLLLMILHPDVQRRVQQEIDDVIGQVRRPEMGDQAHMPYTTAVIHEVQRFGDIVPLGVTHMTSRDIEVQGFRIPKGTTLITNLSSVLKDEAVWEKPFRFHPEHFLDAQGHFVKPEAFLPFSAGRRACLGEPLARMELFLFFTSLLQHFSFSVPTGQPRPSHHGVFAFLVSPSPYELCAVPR

CSCC[C@H](N)C(=O)N[C@@H](C)C(=O)N[C@@H](Cc1c[nH]c2ccccc12)C(=O)N[C@@H](Cc1c[nH]cn1)C(=O)N[C@@H](CC(=O)O)C(=O)N[C@@H](CC(=O)O)C(=O)N[C@@H](CCC(=O)O)C(=O)N[C@@H](CCC(=O)O)C(=O)N[C@@H](Cc1ccccc1)C(=O)N[C@@H](C)C(=O)N[C@@H](CCCNC(=N)N)C(=O)N[C@@H](CCCNC(=N)N)C(=O)N[C@@H](CCCNC(=N)N)C(=O)N[C@@H](CCCNC(=N)N)C(=O)NCCCCCC(=O)NCCCCC(NC(=O)CCCCCNC(=O)[C@H](CCCNC(=N)N)NC(=O)[C@H](CCCNC(=N)N)NC(=O)[C@H](CCCNC(=N)N)NC(=O)[C@H](CCCNC(=N)N)NC(=O)[C@H](C)NC(=O)[C@H](Cc1ccccc1)NC(=O)[C@H](CCC(=O)O)NC(=O)[C@H](CCC(=O)O)NC(=O)[C@H](CC(=O)O)NC(=O)[C@H](CC(=O)O)NC(=O)[C@H](Cc1c[nH]cn1)NC(=O)[C@H](Cc1c[nH]c2ccccc12)NC(=O)[C@H](C)NC(=O)[C@@H](N)CCSC)C(=O)NCCCCC(NC(=O)C(CCCCNC(=O)CCCCCNC(=O)[C@H](CCCNC(=N)N)NC(=O)[C@H](CCCNC(=N)N)NC(=O)[C@H](CCCNC(=N)N)NC(=O)[C@H](CCCNC(=N)N)NC(=O)[C@H](C)NC(=O)[C@H](Cc1ccccc1)NC(=O)[C@H](CCC(=O)O)NC(=O)[C@H](CCC(=O)O)NC(=O)[C@H](CC(=O)O)NC(=O)[C@H](CC(=O)O)NC(=O)[C@H](Cc1c[nH]cn1)NC(=O)[C@H](Cc1c[nH]c2ccccc12)NC(=O)[C@H](C)NC(=O)[C@@H](N)CCSC)NC(=O)CCCCCNC(=O)[C@H](CCCNC(=N)N)NC(=O)[C@H](CCCNC(=N)N)NC(=O)[C@H](CCCNC(=N)N)NC(=O)[C@H](CCCNC(=N)N)NC(=O)[C@H](C)NC(=O)[C@H](Cc1ccccc1)NC(=O)[C@H](CCC(=O)O)NC(=O)[C@H](CCC(=O)O)NC(=O)[C@H](CC(=O)O)NC(=O)[C@H](CC(=O)O)NC(=O)[C@H](Cc1c[nH]cn1)NC(=O)[C@H](Cc1c[nH]c2ccccc12)NC(=O)[C@H](C)NC(=O)[C@@H](N)CCSC)C(N)=O (stereo partly shown) — mean tissue distribution (C57BL/6 mouse female, spleen; dose not given, 3 h; reference: total): 0.75%
CCc1nn(C)c2nc(-c3ccc(C(=O)O)cc3)nc(NCc3ccccc3)c12 — concentration (male CD-1 mouse, plasma; intravenous, 1 mg/kg, 24 h): 1 ng/mL
CC(C)=CCC/C(C)=C/CCn1cc(CC(C)(P(=O)(O)O)P(=O)(O)O)nn1 — bile concentration (CD-1 mice, pooled bile; intravenous, 0.3 mg/kg, 24 h): 394 ng/mL
N=C(N)NCCC[C@@H](NC(=O)[C@H](N)Cc1c[nH]c2ccccc12)C(=O)N[C@H](CCCCN)C(=O)N[C@H](Cc1c[nH]c2ccccc12)C(=O)N[C@H](CCCNC(=N)N)C(=O)N[C@H](CCCCN)C(=O)N[C@H](Cc1c[nH]c2ccccc12)C(=O)N[C@H](CCCNC(=N)N)C(=O)N[C@H](CCCCN)C(=O)N[C@H](Cc1c[nH]c2ccccc12)C(=O)N[C@H](CCCNC(=N)N)C(=O)N[C@H](CCCCN)C(N)=O — cystatin C level (mouse, serum; 20 mg/kg): 41.8 ng/mL
CCn1ccc(-c2cc(-c3cnn(C)c3)cc([C@@H](C)NC(=O)c3cc(OCCN(C)C)ccc3C)c2)n1 — AUC(0-inf) (C57BL/6J mice, male, plasma; iv, 10 mg/kg): 6250 ng·h/mL
O=C1NC2(CC2)COc2ncc(F)cc2[C@H]2COCCN2c2ccn3ncc1c3n2 — organ-to-body weight ratio (Sprague-Dawley rat, male, heart; oral, 10 mg/kg/day, 4 weeks dosing, end of recovery): 0.295 ± 0.005%
CC(C)Oc1c(NC(=O)c2ccc(NC(=O)[C@H](CC(N)=O)NC(=O)c3ccc(/N=N/c4ccccc4)cc3)cc2)ccc(C(=O)Nc2ccc(C(=O)O)cc2)c1O — thermal relaxation half-life (absorbance kinetics; 30 °C, photostationary to ground state): 44.5 h
CCCCCCCCCCCC(=O)N[C@@H](CCCNC(=N)N)C(=O)N[C@@H](Cc1c[nH]c2ccccc12)C(=O)N[C@@H](CCCCN)C(=O)N[C@H](C(=O)N[C@@H](Cc1ccccc1)C(=O)N[C@@H](CCCCN)C(=O)N[C@@H](CCCCN)C(=O)N[C@H](C(=O)N[C@@H](CCC(=O)O)C(=O)N[C@@H](CCCCN)C(=O)N[C@H](C(=O)NCC(=O)N[C@@H](CCC(N)=O)C(=O)N[C@@H](CC(N)=O)C(=O)N[C@H](C(=O)N[C@@H](CCCNC(=N)N)C(=O)N[C@@H](CC(=O)O)C(=O)NCC(=O)N[C@H](C(=O)N[C@H](C(=O)N[C@@H](CCCCN)C(=O)N[C@@H](C)C(=O)NCC(=O)N1CCC[C@H]1C(=O)N[C@@H](C)C(=O)N[C@H](C(=O)N[C@@H](C)C(=O)N[C@H](C(=O)N[C@H](C(=O)NCC(=O)N[C@@H](CCC(N)=O)C(=O)N[C@@H](C)C(=O)N[C@@H](C)C(=O)N[C@H](C(=O)N[C@H](C(N)=O)[C@@H](C)CC)[C@@H](C)O)C(C)C)C(C)C)C(C)C)C(C)C)[C@@H](C)CC)[C@@H](C)CC)C(C)C)[C@@H](C)CC)[C@@H](C)CC — helical content (CD spectroscopy; 50% TFE in water; room temperature): 42.7%
COc1cnc2cccc(N3CCc4c(cc(Cn5ccnc5)cc4-c4cn(C)nc4C(F)(F)F)C3=O)c2c1 — body weight change (CD-1 mouse; intraperitoneal, 50 mg/kg once daily, day 3, dose-escalation tolerability; reference: day 1): 4%
CS(C)(=O)=Nc1ccc(-c2ccc(-c3nc4cc(O[C@@H]5CO[C@H]6[C@@H]5OC[C@H]6O)[nH]c4cc3F)cc2)cc1 — inhibition (PAK1 (Homo sapiens, UniProt Q13153); enzyme activity, inhibitor; 10 µM): 17%
C[C@H](O)[C@@H](NC(=O)[C@H]1CCCN1C(=O)[C@@H](CCCCN)NC(=O)[C@@H](CO)NC(=O)[C@@H](Cc1ccc(O)cc1)NC(=O)[C@@H](CC(N)=O)NC(=O)CCOCCOCCOCCNC(=O)CN1CCN(CC(=O)O)CCN(CC(=O)O)CCN(CC(=O)O)CC1)C(=O)N[C@H](CC(=O)O)C(=O)N[C@H](CCCNC(=N)N)C(=O)N[C@H](CCC(N)=O)C(=O)N[C@H](Cc1ccc(O)cc1)C(=O)N[C@H](Cc1c[nH]cn1)C(=O)N[C@H](Cc1ccccc1)C(N)=O [copper-64 labelled] — tissue uptake (ex vivo gamma counting; C57BL/6J mouse, normal, small intestine; intravenous, 1.85 MBq, 20 min): 1.36 ± 0.36 %ID/g
CC(C)C[C@H](NC(=O)[C@H](CCCNC(=N)N)NC(=O)[C@H](CCC(=O)O)NC(=O)CNC(=O)[C@H](CCCCN)NC(=O)[C@@H](NC(=O)[C@H](Cc1ccccc1)NC(=O)[C@H](Cc1c[nH]c2ccccc12)NC(=O)[C@H](CCCCN)NC(=O)[C@H](CCCCN)NC(=O)[C@H](Cc1c[nH]c2ccccc12)NC(=O)CN)[C@@H](C)O)C(=O)N[C@@H](CO)C(=O)N[C@@H](CCC(N)=O)C(=O)N[C@@H](CCCNC(=N)N)C(=O)N[C@@H](Cc1c[nH]cn1)C(=O)N[C@@H](Cc1ccccc1)C(=O)N[C@@H](C)C(=O)O — chronic toxic concentration (zebrafish embryos 4 hpf, E3 medium; 24 h): 25 µM
COc1ccccc1-c1n[nH]c2nc(NC3CCN(C(=O)Cc4ccc(F)cc4F)CC3)ncc12 — relative abundance (bead binding, competition bead pull-down, measured: LINJ.05.0350; Leishmania donovani extract; 10 µM; reference: vehicle): 1.04
CC[C@H](C)[C@H](NC(=O)[C@H](CCCCN)NC(=O)CNC(=O)[C@H](CC(C)C)NC(=O)[C@H](Cc1ccccc1)NC(=O)[C@H](CCCCN)NC(=O)[C@H](CO)NC(=O)[C@H](Cc1ccccc1)NC(=O)[C@H](Cc1c[nH]c2ccccc12)NC(=O)[C@H](CCC(N)=O)NC(=O)[C@@H](NC(=O)[C@H](Cc1ccccc1)NC(=O)CCCCCNC(=O)CN1CCN(CC(=O)O)CCN(CC(=O)O)CCN(CC(=O)O)CC1)C(C)C)C(=O)N[C@@H](CCC(=O)O)C(=O)N1CCC[C@H]1C(=O)N[C@@H](CC(=O)O)C(=O)N[C@H](C(=O)N[C@@H](CO)C(=O)N[C@@H](CCC(N)=O)C(=O)N[C@H](C(=O)N[C@@H](CCC(N)=O)C(=O)N[C@@H](CC(=O)O)C(=O)N1CCC[C@H]1C(=O)N[C@@H](CC(N)=O)C(=O)N[C@@H](CC(=O)O)C(=O)N[C@@H](CCC(N)=O)C(=O)N[C@@H](Cc1ccc(O)cc1)C(=O)N[C@@H](CCC(=O)O)C(=O)N1CCC[C@H]1C(=O)N[C@@H](Cc1ccccc1)C(=O)O)C(C)C)C(C)C [copper-64 labelled] — SUVmean (dynamic PET; mouse, CT26 tumour, checkpoint inhibitor-treated, tumour; intravenous, 100 µCi/mouse, 2340 s): 5.34 SUV
Cc1cc(-c2ccc3ccccc3c2)nnc1NCCN1CCN(C)CC1 — remaining compound (Cytochrome P450 2D6 (CYP2D6, Homo sapiens, UniProt P10635); substrate; recombinant enzyme; 100 nM, 1 h): 119%
CC1(C)C(NC(=O)C(=NOC2(C(=O)O)CC2)c2csc(N)n2)C(=O)N1OS(=O)(=O)O (stereo not shown) — teratogenic index LD50/EC50 (zebrafish embryos): < 1
C=Cc1c(C)c2cc3nc(c(CC(=O)[O-])c4[n-]c(cc5nc(cc1[n-]2)C(C)=C5CC)c(C)c4C(=O)[O-])C(CCC(=O)[O-])C3C.[Cu+2].[Na+].[Na+].[Na+] (stereo not shown) — serum AST (Wistar rat, female; oral, 500 mg/kg daily, 28 days): 105 ± 20.1 U/L
N#[11C]c1ccc(-c2csc(NN=C3CCCC3)n2)cc1 — uptake in testis (C57BL/6 mouse, male; intravenous, 3 MBq, 15 min): 1.12 ± 0.05 %ID/g
COc1ccccc1-c1n[nH]c2nc(N[C@H]3CC[C@H](NS(=O)(=O)CC(C)C)CC3)ncc12 — relative abundance (bead binding, competition bead pull-down, measured: LINJ.31.1150; Leishmania donovani extract; 10 µM; reference: vehicle): 0.95
CC1(C)C(=O)N(c2ccc(C#N)c(C(F)(F)F)c2)C(=S)N1c1ccc(C(N)=O)c(F)c1 — AUC (male human, plasma; oral, 80 mg, single dose, fasted): 151000 ng·h/mL
O=C1NC(=O)c2c1c1cc(F)c[n+]3c1c1c2c2cc(O)ccc2[n]1[Ru-4]312([N]=C=S)[S+]3CC[S+]1CC[S+]2CC3 (stereo not shown) — remaining activity (BMX (Homo sapiens, UniProt P51813); enzyme activity; 100 nM, human enzyme, with: 10 µM ATP; reference: untreated): 107%
CN1Cc2cc(Cl)ccc2-n2c(nnc2C2CCN(c3cccc([18F])n3)CC2)C1 — tissue uptake (C57BL/6 mouse male, muscle; intravenous, 3.7 MBq, 1 min): 3.63 ± 1.46 %ID/g

Repeated from above:
CCn1ccc(-c2cc(-c3cnn(C)c3)cc([C@@H](C)NC(=O)c3cc(OCCN(C)C)ccc3C)c2)n1 — AUC(0-inf) (C57BL/6J mice, male, plasma; iv, 10 mg/kg): 6250 ng·h/mL
O=C1NC2(CC2)COc2ncc(F)cc2[C@H]2COCCN2c2ccn3ncc1c3n2 — organ-to-body weight ratio (Sprague-Dawley rat, male, heart; oral, 10 mg/kg/day, 4 weeks dosing, end of recovery): 0.295 ± 0.005%
